Results gathered from unrelated publications.
Every numbered part comes from another study and shows a few of its results, in no order.
Sequence of UniProt Q02779 (whole entry, looked up): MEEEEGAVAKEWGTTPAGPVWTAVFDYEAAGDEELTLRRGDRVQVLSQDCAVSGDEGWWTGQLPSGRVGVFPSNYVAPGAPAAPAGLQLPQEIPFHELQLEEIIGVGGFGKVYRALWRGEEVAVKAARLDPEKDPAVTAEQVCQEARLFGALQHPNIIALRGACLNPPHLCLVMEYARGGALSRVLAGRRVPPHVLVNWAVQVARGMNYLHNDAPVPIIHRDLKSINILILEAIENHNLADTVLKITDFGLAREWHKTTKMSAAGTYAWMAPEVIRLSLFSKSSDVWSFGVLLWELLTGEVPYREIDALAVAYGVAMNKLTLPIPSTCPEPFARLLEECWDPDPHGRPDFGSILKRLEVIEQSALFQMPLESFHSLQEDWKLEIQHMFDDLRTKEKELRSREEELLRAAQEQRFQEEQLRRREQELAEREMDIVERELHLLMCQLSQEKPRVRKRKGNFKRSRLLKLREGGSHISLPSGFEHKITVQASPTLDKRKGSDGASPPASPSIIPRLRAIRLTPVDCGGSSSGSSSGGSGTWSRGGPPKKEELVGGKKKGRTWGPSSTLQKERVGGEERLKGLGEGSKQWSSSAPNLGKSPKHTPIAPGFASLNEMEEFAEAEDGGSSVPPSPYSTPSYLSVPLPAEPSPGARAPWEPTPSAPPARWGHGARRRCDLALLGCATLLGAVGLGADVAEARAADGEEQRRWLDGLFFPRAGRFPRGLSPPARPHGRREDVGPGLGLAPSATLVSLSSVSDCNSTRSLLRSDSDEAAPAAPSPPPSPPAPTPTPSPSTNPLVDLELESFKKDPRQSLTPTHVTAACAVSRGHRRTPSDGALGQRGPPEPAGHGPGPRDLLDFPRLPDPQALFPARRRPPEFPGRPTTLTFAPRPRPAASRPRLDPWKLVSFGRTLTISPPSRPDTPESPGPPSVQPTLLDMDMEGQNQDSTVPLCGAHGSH
Sequence of UniProt Q16832 (whole entry, looked up): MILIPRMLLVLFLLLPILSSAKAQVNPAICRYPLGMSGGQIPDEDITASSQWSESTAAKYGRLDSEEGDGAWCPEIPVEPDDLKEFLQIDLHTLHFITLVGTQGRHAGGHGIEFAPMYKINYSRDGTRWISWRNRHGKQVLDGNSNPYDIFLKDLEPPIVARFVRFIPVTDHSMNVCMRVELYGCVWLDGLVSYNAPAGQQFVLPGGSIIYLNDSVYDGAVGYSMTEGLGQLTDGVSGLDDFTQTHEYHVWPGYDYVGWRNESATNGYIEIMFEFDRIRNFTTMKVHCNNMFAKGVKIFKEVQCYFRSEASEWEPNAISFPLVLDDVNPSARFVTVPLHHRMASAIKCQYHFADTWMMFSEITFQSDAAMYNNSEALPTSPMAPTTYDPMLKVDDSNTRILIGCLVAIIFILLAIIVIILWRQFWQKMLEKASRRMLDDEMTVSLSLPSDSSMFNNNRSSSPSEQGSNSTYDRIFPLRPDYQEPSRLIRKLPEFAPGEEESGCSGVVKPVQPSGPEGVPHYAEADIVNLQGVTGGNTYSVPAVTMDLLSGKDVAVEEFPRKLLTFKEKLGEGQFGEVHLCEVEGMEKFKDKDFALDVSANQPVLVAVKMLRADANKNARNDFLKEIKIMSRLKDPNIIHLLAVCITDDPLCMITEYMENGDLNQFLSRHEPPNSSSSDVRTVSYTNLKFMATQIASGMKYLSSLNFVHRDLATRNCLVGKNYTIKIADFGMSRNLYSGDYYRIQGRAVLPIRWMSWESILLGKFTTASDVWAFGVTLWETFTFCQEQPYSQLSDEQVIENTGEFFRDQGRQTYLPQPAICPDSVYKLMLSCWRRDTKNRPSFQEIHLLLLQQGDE
Sequence of UniProt P42681 (whole entry, looked up): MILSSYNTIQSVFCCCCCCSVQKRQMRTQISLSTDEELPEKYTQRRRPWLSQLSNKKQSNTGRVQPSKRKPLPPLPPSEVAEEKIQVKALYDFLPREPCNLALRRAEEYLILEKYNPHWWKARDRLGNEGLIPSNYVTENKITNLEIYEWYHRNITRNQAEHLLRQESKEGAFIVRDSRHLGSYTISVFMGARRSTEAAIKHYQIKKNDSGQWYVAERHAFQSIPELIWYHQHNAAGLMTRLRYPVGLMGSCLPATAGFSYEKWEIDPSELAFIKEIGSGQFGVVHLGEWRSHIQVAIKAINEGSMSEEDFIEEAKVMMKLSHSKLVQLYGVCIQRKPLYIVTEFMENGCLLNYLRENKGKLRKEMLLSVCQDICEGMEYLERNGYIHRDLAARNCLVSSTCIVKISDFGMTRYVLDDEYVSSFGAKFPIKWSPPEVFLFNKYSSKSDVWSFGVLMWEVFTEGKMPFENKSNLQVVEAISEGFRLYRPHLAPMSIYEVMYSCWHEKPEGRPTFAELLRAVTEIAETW
Sequence of UniProt Q8WXR4 (whole entry, looked up): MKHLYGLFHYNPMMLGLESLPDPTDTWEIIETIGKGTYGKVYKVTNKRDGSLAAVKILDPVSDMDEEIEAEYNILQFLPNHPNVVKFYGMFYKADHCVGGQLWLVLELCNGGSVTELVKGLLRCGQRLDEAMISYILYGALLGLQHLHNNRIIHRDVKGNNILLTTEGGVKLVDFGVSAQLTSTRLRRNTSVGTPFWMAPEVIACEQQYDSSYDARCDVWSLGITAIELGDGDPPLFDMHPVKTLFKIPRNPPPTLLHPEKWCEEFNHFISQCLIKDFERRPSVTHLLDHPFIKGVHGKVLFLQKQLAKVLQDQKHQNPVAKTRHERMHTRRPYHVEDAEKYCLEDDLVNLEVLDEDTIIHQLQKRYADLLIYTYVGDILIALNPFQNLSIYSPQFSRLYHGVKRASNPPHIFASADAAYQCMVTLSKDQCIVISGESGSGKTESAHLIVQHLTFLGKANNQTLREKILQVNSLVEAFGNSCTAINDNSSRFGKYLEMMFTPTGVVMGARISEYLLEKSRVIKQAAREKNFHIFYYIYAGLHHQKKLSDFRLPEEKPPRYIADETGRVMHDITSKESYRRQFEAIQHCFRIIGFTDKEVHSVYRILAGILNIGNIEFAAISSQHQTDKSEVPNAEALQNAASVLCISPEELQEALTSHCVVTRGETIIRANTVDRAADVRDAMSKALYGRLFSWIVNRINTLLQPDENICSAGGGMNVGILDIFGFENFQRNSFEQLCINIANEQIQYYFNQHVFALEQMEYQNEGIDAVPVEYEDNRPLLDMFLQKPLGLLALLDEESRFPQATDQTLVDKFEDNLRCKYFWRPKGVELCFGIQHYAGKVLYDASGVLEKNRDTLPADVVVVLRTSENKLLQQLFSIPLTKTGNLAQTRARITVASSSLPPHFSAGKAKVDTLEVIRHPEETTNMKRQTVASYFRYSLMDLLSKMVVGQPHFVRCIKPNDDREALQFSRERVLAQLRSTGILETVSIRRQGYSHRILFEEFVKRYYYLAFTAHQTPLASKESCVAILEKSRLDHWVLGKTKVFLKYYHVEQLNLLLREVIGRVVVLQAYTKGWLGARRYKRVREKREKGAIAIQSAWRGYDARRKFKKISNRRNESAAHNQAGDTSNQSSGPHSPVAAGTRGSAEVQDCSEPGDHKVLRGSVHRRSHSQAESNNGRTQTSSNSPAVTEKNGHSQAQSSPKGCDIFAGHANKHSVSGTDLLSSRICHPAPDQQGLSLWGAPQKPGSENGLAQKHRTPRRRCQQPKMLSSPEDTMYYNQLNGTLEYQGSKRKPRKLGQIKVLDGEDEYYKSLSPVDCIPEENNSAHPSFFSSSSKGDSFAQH
Sequence of UniProt P00519 (whole entry, looked up): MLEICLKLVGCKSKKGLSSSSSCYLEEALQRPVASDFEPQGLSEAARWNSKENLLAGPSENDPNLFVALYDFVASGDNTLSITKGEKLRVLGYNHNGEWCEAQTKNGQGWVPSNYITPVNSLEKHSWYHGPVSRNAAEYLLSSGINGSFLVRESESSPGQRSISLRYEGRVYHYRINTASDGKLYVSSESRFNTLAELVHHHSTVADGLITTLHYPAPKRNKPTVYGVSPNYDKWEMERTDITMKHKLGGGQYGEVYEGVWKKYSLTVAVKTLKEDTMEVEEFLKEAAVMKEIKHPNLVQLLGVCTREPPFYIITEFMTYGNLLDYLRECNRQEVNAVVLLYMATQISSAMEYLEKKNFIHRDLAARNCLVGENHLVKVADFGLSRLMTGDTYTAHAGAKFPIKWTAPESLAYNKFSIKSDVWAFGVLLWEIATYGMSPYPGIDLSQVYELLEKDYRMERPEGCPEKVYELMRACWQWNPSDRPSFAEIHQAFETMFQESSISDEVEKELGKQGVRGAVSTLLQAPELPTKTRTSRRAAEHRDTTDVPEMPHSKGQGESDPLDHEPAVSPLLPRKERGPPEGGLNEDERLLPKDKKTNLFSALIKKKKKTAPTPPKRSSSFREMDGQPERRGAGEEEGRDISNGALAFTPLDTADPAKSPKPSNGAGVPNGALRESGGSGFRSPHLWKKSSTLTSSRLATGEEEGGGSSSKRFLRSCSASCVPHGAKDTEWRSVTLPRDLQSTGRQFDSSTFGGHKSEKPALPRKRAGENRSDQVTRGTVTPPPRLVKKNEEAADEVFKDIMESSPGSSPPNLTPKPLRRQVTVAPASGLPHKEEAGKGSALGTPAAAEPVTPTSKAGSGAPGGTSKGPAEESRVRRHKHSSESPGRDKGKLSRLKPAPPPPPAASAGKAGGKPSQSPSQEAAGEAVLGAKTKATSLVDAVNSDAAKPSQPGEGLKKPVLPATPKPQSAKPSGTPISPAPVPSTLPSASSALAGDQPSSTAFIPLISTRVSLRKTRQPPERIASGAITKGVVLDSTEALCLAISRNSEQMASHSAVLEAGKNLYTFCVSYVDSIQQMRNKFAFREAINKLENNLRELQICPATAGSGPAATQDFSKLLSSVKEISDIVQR

Block 1 — SMILES: N#CC(=C(N)Sc1ccc(N)cc1)c1ccccc1C(F)(F)F; observed: enzyme activity; action: inhibitor; concentration: 0.5 µM; reference: control
It gave 102% for remaining activity (DDR2 (Homo sapiens, UniProt Q16832)).
It gave 97.9% for remaining activity (MAP2K1 (Homo sapiens, UniProt Q02750)).
It gave 102% for remaining activity (AKT2 (Homo sapiens, UniProt P31751)).
For Myosin-IIIb (MYO3B, Homo sapiens, UniProt Q8WXR4): remaining activity read 98.3%.
It gave 98.4% for remaining activity (GRK4 (Homo sapiens, UniProt P32298)).
It gave 104% for remaining activity (ROCK1 (Homo sapiens, UniProt Q13464)).
The remaining activity was 99.1% (DCLK2 (Homo sapiens, UniProt Q8N568)).
PAK3 (Homo sapiens, UniProt O75914) — remaining activity: 99.2%.
The remaining activity was 93.4% (CLK4 (Homo sapiens, UniProt Q9HAZ1)).
The remaining activity was 92.5% (TLK2 (Homo sapiens, UniProt Q86UE8)).
It gave 98.7% for remaining activity (TXK (Homo sapiens, UniProt P42681)).
It gave 94.4% for remaining activity (KDR (Homo sapiens, UniProt P35968)).
The remaining activity was 110% (CAMK4 (Homo sapiens, UniProt Q16566)).
MINK1 (Homo sapiens, UniProt Q8N4C8) — remaining activity: 104%.
The remaining activity was 112% (MAPK11 (Homo sapiens, UniProt Q15759)).

Block 2 — observed: acetyl-histone H4 peptide binding; method: AlphaScreen displacement; concentration: 50 µM
Target: Bromodomain-containing protein 4, BD1 (BRD4, Homo sapiens, UniProt O60885)
`O=C(CSc1ccc2nnc(-c3cccc(F)c3)n2n1)Nc1ccc(Cl)cc1` has an inhibition of -5.25%.
`O=C1NCCc2[nH]c(-c3ccnc(-c4cnc5ccccc5c4)c3)cc21` has an inhibition of 18.8%.
For `CCN(CC)C(=S)Nc1ccc2nc[nH]c(=O)c2c1`, the inhibition was 7.15%.
`N#CC(=Cc1cccnc1)c1nc2ccccc2s1` has an inhibition of 25.4%.
For `O=C(CSc1nnc(-c2ccccc2O)n1-c1ccccc1)Nc1nccs1`, the inhibition was 5.05%.
With `COc1ccc(Nc2nccc(-c3cccc(C#N)c3)n2)cc1` the inhibition was 12.2%.

Block 3 — observed: cell-free assay; method: competition with immobilised ligand; concentration: 1 µM
SMILES: CCc1ccccc1C(=O)Nc1n[nH]c2c(C)c(F)c(C3C(C#N)=C(C)N(C)C(C)=C3C#N)cc12
It gave 100% for remaining binding (Ribosomal protein S6 kinase alpha-2, C-terminal kinase domain (RPS6KA2, Homo sapiens, UniProt Q15349)).
Tyrosine-protein kinase ABL1, non-phosphorylated (ABL1, Homo sapiens, UniProt P00519) — remaining binding: 78%.
For STK3 (Homo sapiens, UniProt Q13188): remaining binding read 80%.
SBK3 (Homo sapiens, UniProt P0C264) — remaining binding: 73%.
For SRMS (Homo sapiens, UniProt Q9H3Y6): remaining binding read 94%.

Block 4 — SMILES: O=C(Nc1ccccc1)Nc1cccc(Oc2ccc3nccn3n2)c1; method: competitive binding panel; concentration: 1 µM; reference: vehicle
For MUSK (Homo sapiens, UniProt O15146): remaining binding read 100%.
For TRPM6 (Homo sapiens, UniProt Q9BX84): remaining binding read 100%.
For TLK1 (Homo sapiens, UniProt Q9UKI8): remaining binding read 83%.
The remaining binding was 91% (MAP3K10 (Homo sapiens, UniProt Q02779); item: MLK2).

Repeated from above (block 3):
For SRMS (Homo sapiens, UniProt Q9H3Y6): remaining binding read 94%.
Tyrosine-protein kinase ABL1, non-phosphorylated (ABL1, Homo sapiens, UniProt P00519) — remaining binding: 78%.
SBK3 (Homo sapiens, UniProt P0C264) — remaining binding: 73%.
It gave 100% for remaining binding (Ribosomal protein S6 kinase alpha-2, C-terminal kinase domain (RPS6KA2, Homo sapiens, UniProt Q15349)).
For STK3 (Homo sapiens, UniProt Q13188): remaining binding read 80%.
